Measured values of several laboratories.
Each line is one published result; not all experiments were run side by side. Numbers after ± are the reported error.

`CC(C)C[C@H](NC(=O)[C@H](CCCNC(=N)N)NC(=O)[C@@H](N)CS)C(=O)N[C@@H](CC(N)=O)C(=O)O` gave a remaining activity of 79.5% (PPO3 (Agaricus bisporus, UniProt C7FF04); enzyme activity, inhibitor; 100 µM).
For `CC(C)CCC[C@@H](C)[C@H]1CC[C@H]2[C@@H]3CC=C4C[C@@H](OS(=O)(=O)O)CC[C@]4(C)[C@H]3CC[C@]12C`, the maximal inhibition was 87.5 ± 3.1% (Prothrombin (F2, Homo sapiens, UniProt P00734); enzyme activity, inhibitor; added: unfractionated heparin 250 µM).
For `CCC1(CO)CCCN(C(=O)c2ccc(CSC)o2)C1` (stereo not shown), the signal attenuation was 20.1 ± 10% (DNA dC->dU-editing enzyme APOBEC-3B, C-terminal domain (Homo sapiens, UniProt Q9UH17); binding, 1H CPMG NMR; 20 µM protein).
`NCCCC[C@H](NC(=O)[C@@H](N)CCCCN)C(=O)NCC(=O)NCC(=O)NCCCCCCCCNC(=O)c1ccc(-c2ccccn2)cc1` — result for “apparent association constant”: 120000 ± 10000 M⁻¹ (Calmodulin-1 (CALM1, Homo sapiens, UniProt P0DP23); binding, quartz crystal microbalance; 25 °C, no Ca2+).
`Cc1ncsc1-c1ccc([C@@H]2CCCCCCNC(=O)C[C@@H]3N=C(c4ccc(cc4)OCCCCCC(=O)N[C@@H](C(C)(C)C)C(=O)N4C[C@H](O)C[C@H]4C(=O)N2)c2c(sc(C)c2C)-n2c(C)nnc23)cc1` — result for “lowest concentration with clear degradation”: 2 to 4 nM (Bromodomain-containing protein 4 (BRD4, Homo sapiens, UniProt O60885); degrader, immunoblotting; PC-3; 24 h).
The maximum inhibition of `COc1cc(F)c(C(C)C)cc1C1=C(CN2C(=O)O[C@H](c3cc(C(F)(F)F)cc(C(F)(F)F)c3)[C@@H]2C)CC(C)(C)CC1` is reported as 83% (Cholesteryl ester transfer protein (Homo sapiens, UniProt P11597); enzyme activity; healthy male subjects, plasma; oral, 400 mg single dose; relative to: baseline).
For `[11CH3]Nc1ccc(-c2nc3ccc(O)cc3o2)cn1`, “distribution volume ratio” read 1.01 ± 0.06 (Amyloid-beta precursor protein (APP, Homo sapiens, UniProt P05067); binding, PET, reference Logan; control subjects, lateral temporal cortex; relative to: cerebellum).
With `NCCCNCCCCNCCCNCc1ccccc1` the Km was 0.2 µM (Peroxisomal N(1)-acetyl-spermine/spermidine oxidase (Mus musculus, UniProt Q8C0L6); enzyme activity, substrate, fluorescence; pH 7.5).
For `CC[C@H](C)[C@H](NC(=O)[C@H](CCCCN)NC(=O)[C@H](CCCCN)NC(=O)[C@@H](NC(=O)[C@H](CCC(=O)O)NC(=O)[C@H](CCC(=O)O)NC(=O)[C@H](CCC(=O)O)NC(=O)[C@H](CO)NC(=O)[C@H](CC(C)C)NC(=O)[C@H](CC(=O)O)NC(=O)[C@H](CC(C)C)NC(=O)CNC(=O)[C@H](CCCNC(=N)N)NC(=O)[C@H](CC(C)C)NC(=O)[C@H](CO)NC(=O)CNC(=O)CNC(=O)CNC(=O)CCCC[C@@H]1SC[C@@H]2NC(=O)N[C@@H]21)C(C)C)C(=O)N[C@@H](CC(C)C)C(=O)N[C@@H](CC(=O)O)C(=O)N[C@@H](CCC(=O)O)C(=O)N[C@H](C(=O)N[C@H](C(=O)N[C@@H](CCCCN)C(=O)N[C@@H](C)C(=O)O)C(C)C)[C@@H](C)CC`, the Kd ratio was 4.8 (Fab B11 antibody (human); binding, biolayer interferometry; relative to: alanine mutant over wild type).
For `[123I]c1ccc2nc(-c3ccc(-n4ccnn4)nc3)cn2c1`, the SUVR was 1.39 ± 0.32 (Amyloid-beta precursor protein, amyloid-beta (APP, Homo sapiens, UniProt P05067); SPECT; Alzheimer's disease patients, Temporal cortex; 150 to 240 min; relative to: cerebellum).
The melting temperature of `Cc1cc(N2CCC(CO)(C3CC3)C2=O)cc(C(=O)NCc2cc(F)cc(-c3cnn(C)c3)c2)n1` (stereo not shown) is reported as 69.2 °C (Proline--tRNA ligase (Plasmodium falciparum, UniProt Q8I5R7); thermal shift; no substrate).
`CNc1ccccc1C(=O)O[C@H]1C[C@H](n2cnc3c(N)ncnc32)O[C@@H]1COP(=O)(O)OP(=O)(O)O` — result for “dissociation rate constant”: 7.86 ± 0.03 s⁻¹ (Unconventional myosin-Va (Gallus gallus, UniProt Q02440, D297C/G292C/I296C/S293C/V295G); stopped-flow FRET; 25 °C, added: MgCl2 10 mM).
`O=C(c1cc2c(s1)CCCCC2)N1CCC(n2c(=O)[nH]c3ccccc32)CC1` has a unitary current of roughly 2.2 pA (Short transient receptor potential channel 6 (Trpc6, Mus musculus, UniProt Q61143); ion current, agonist, outside-out patch clamp; HEK293; 1 µM, holding -60 mV).
Under binding, `O=c1ccn(C2OC(COP(=O)(O)OP(=O)(O)OP(=O)(O)O)C(O)C2O)c(=O)[nH]1` (stereo not shown) is recorded as “no binding” (UAP1 (Homo sapiens, UniProt Q16222); surface plasmon resonance; concentration not given).
`COc1ccc(NC(=O)c2ccccc2)c(C)n1` has a specific activity of less than 1 pmol/min/µg (Carboxylesterase 3 (CES3, Homo sapiens, UniProt Q6UWW8); substrate; 50 µM, pH 8, 37 °C, enzyme purity 3%).
`CC(C)C[C@H](NC(=O)CNC(=O)[C@H](CC(C)C)NC(=O)[C@@H]1CCCN1)C(=O)N[C@@H](CCCNC(=N)N)C(=O)N[C@@H](CO)C(=O)N[C@@H](CCCCN)C(=O)O` has a hydrolysis product of 84% (Matrix metalloproteinase-9 (MMP9, Homo sapiens, UniProt P14780); substrate, HPLC; 500 µM, 72 h, pH 7.5, 37 °C).
The probe activation of `C=Cc1c(C)c2cc3nc(c4c5[nH]c(cc6nc(cc1[nH]2)C(C)=C6CC)c(C)c5C(=O)C4)[C@@H](CCC(=O)NCC(=O)N1CCC[C@H]1C(=O)N[C@@H](CC(C)C)C(=O)NCC(=O)N[C@@H](Cc1ccccc1)C(=O)N[C@@H](CCCNC(=N)N)C(=O)N[C@H](C(=O)NCC(=O)N[C@@H](CCCCNC(=O)CCCN(C)c1ccc(/N=N/c2ccc4nc5ccc(N(CC)CC)cc5[n+](-c5ccccc5)c4c2)cc1)C(N)=O)C(C)C)[C@@H]3C` is reported as roughly 85% (Collagenase 3 (MMP13, Homo sapiens, UniProt P45452); substrate; concentration not given, 24 h, 37 °C; relative to: proteinase K).
The EC200 of `O=C1CSc2ccccc2N1CC(=O)N(c1ccc(F)cc1)c1ccc(F)cc1` is reported as 15 ± 3.3 µM (Proteasome subunit alpha type-2/Proteasome subunit alpha type-6, 20S proteasome (Homo sapiens, UniProt P25787+P60900); proteolysis, activator, fluorogenic peptide; purified 20S proteasome; added: Suc-LLVY-AMC, Z-LLE-AMC, Boc-LRR-AMC).
The ΔG of `Cc1ncsc1-c1ccc(CNC(=O)[C@@H]2C[C@@H](O)CN2C(=O)[C@@H](NC(=O)COCCOCCOCCNC(=O)C[C@@H]2N=C(c3ccc(Cl)cc3)c3c(sc(C)c3C)-n3c(C)nnc32)C(C)(C)C)cc1` is reported as 22 ± 0.2 kcal/mol (VHL/BRD3, BD2; with Elongin B/C (Homo sapiens, UniProt P40337+Q15059); ITC; Brd3^BD2, ternary).
`COc1ccc(-c2cc(C(F)(F)F)nc(S(=O)(=O)CCCC(=O)Nc3ccc(F)cc3F)n2)cc1OC` gave an efficacy increase of 84% (Glucagon-like peptide 1 receptor (Rattus norvegicus, UniProt P32301); cAMP accumulation, positive allosteric modulator; INS-1 832/13; 25 µM, added: GLP-1(9-36)).
The ΔG of `CC(/C=C/C(=O)NO)=C\[C@@H](C)C(=O)c1ccc(N(C)C)cc1` is reported as -8.6 ± 0.3 kcal/mol (Histone deacetylase 8 (HDAC8, Homo sapiens, UniProt Q9BY41); ITC; Tris-HCl buffer; pH 7.5, 25 °C).
`O=C(O)Cc1ccc(O)cc1`: “minimum activating concentration” 1 µM (p-hydroxyphenylacetate 3-hydroxylase, reductase component (C1-hpah, Acinetobacter baumannii, UniProt Q6Q271); NADH oxidation, activator; pH 7, added: 50 µM NADH).
`CC(C)CC(NC(=O)C(NC(=O)NC(C(=O)O)C(C)C)C1CCNC(=N)N1)C(=O)NCCCNC(C(=O)O)C(OC1OC(CN)C(O)C1O)C1OC(n2ccc(=O)[nH]c2=O)C(O)C1O` (stereo not shown) has a binding stoichiometry of 0.56 ± 0.07 sites (Phospho-N-acetylmuramoyl-pentapeptide-transferase (mraY, Aquifex aeolicus, UniProt O66465, H325A); ITC; concentration not given, H325A mutant).
`CN(C)S(=O)(=O)c1ccc(S(=O)(=O)N2CCC(n3c(=O)[nH]c4ccccc43)CC2)cc1`: ATPase activity “no effect” (ATP-dependent helicase NAM7, helicase domain (NAM7, Saccharomyces cerevisiae, UniProt P30771); enzyme activity; 100 µM).
With `CNCC=C(C)C=CC=CC=CC1=C(C)CCCC1(C)C` the melting temperature was 65.9 °C (Rhodopsin, apoprotein (opsin) (RHO, Bos taurus, UniProt P02699); regenerated pigment stability, thermal shift, BFC probe; ROS disk membranes).

For quick reference, copied from above:
`CC(C)C[C@H](NC(=O)[C@H](CCCNC(=N)N)NC(=O)[C@@H](N)CS)C(=O)N[C@@H](CC(N)=O)C(=O)O` gave a remaining activity of 79.5% (PPO3 (Agaricus bisporus, UniProt C7FF04); enzyme activity, inhibitor; 100 µM).
The ΔG of `Cc1ncsc1-c1ccc(CNC(=O)[C@@H]2C[C@@H](O)CN2C(=O)[C@@H](NC(=O)COCCOCCOCCNC(=O)C[C@@H]2N=C(c3ccc(Cl)cc3)c3c(sc(C)c3C)-n3c(C)nnc32)C(C)(C)C)cc1` is reported as 22 ± 0.2 kcal/mol (VHL/BRD3, BD2; with Elongin B/C (Homo sapiens, UniProt P40337+Q15059); ITC; Brd3^BD2, ternary).
The EC200 of `O=C1CSc2ccccc2N1CC(=O)N(c1ccc(F)cc1)c1ccc(F)cc1` is reported as 15 ± 3.3 µM (Proteasome subunit alpha type-2/Proteasome subunit alpha type-6, 20S proteasome (Homo sapiens, UniProt P25787+P60900); proteolysis, activator, fluorogenic peptide; purified 20S proteasome; added: Suc-LLVY-AMC, Z-LLE-AMC, Boc-LRR-AMC).
